# Experimental data from different studies.
# Compare with care: the assays were run in different laboratories.
# Cell line: NCI-H460
SMILES,test,setting,scale,endpoint,value
O=C(Nc1nnc2c1c(-c1ccc(Cl)cc1)nc1sc(=Cc3ccco3)c(=O)n12)c1ccccc1 (mixture of isomers),SRB,"10 µM, NCI60 single-dose screen",reference: untreated,cell growth,15.8%
Cc1ccc(C(=O)/C=C/c2ccccc2)s1,SRB,10 µM,,growth inhibition,< 0%
O=C(O)c1ccc(-c2ccc(O)cc2)c2c1C=C(c1ccc(O)cc1)OC2(c1ccc(O)cc1)c1ccc(O)cc1,annexin V/PI flow cytometry,"30 µM, 24 h",,apoptotic cells,48.4%
Cc1nc2c(F)cc(-c3nc(Nc4ccc(CNC(=O)CCCCCCC(=O)NO)cc4)ncc3F)cc2n1C(C)C,"cell growth or viability, CCK-8","0.3 µM, 48 h",,inhibition,99.6%
CCCC(CCC)C(=O)OCc1cn(-c2cc3ccccc3oc2=O)nn1,NCI60 single-dose screen,10 µM,,growth percentage,102%
CCN(C(=O)c1cc(F)ccc1Oc1nncnc1N1CCC2(C1)CN([C@H](CCCN(C)CCOC)C(C)C)C2)C(C)C,cell growth or viability,72 h,,GI50,> 10000 nM
CCCCCCCCCCCCCCCCCCOc1ccccc1CCOP(=O)([O-])OCC[N+](C)(C)C,"cell growth or viability, SRB",10 µM,,inhibition,37.9%
COc1ccccc1[C@H](Cn1c(=O)n(C(C)(C)C(N)=O)c(=O)c2c(C)c(-c3ncco3)sc21)OC1CCOCC1,"cell proliferation, inhibitor",168 h,,EC50,38 nM
Cc1nc2c(F)cc(-c3nc(Nc4ccc(C(=O)NCCCCCC(=O)NO)cc4)ncc3F)cc2n1C(C)C,"cell growth or viability, CCK-8","0.3 µM, 48 h",,inhibition,99.1%
CN(C)CCN1CCN(c2ccc3nc(-c4ccc5nc(-c6ccc(C(F)(F)F)cc6)[nH]c5c4)[nH]c3c2)CC1,SRB,"10 µM, 48 h",,growth percent,10.6%
C1=[N+]2CCCC[N+]3=Cc4ccc5[n]4[Au-]23[n]2c1ccc2-c1nc2ccccc2nc1-5.F[P-](F)(F)(F)(F)F,NCI60 five-dose screen,,,TGI,4 -log M

# A few entries again:
SMILES,test,setting,scale,endpoint,value
CCCCCCCCCCCCCCCCCCOc1ccccc1CCOP(=O)([O-])OCC[N+](C)(C)C,"cell growth or viability, SRB",10 µM,,inhibition,37.9%
